# Results pooled from the literature.
# A part holds a random share of what one study measured. Positions count from the first letter of the parent shown.

# Sample 1
# Target: Interferon regulatory factor 5, full length, phosphomimetic (IRF5, Homo sapiens, UniProt Q13568-2, residues 1-514, S451D/S453D/S456D/S462D)
# Method: protein-binding microarray
# Molecule type: double-stranded DNA, one strand shown
# Matrix: in vitro
# Tested at: 940 nM top
# Notes: 60-bp whole probe
# Together with: salmon DNA 0.4 mg/ml
# Reference: random background probes
# Direction: higher = stronger binding
# All sequences stand within: GCCTAGCAC … GTCTTGATTCGCTTGACGCTGCTG
Sequence,fitted relative affinity
TTAGAACTGAGGATCGATTAGTGCTAG,-0.392 z-score
TCCTCTTTACTGCTCCACACGTGCTAG,1.12 z-score
TCACGTCTGAGCTCCGTACTGTGCTAG,-0.0569 z-score
GACAATTTCAGTTCCGAGACGTGCTAG,1.13 z-score
TCAAAATTTTTTTTCTAACTGTGCTAG,0.249 z-score
TACGATATCAGTTTCGAGACGTGCTAG,3.55 z-score
GACGATCTCAGTCACGAGACGTGCTAG,0.208 z-score
TTAGGACTGTTTCTCCTTTAGTGCTAG,0.543 z-score
AACGATTCCAGTTTCGAGACGTGCTAG,4.04 z-score
GACGGTATCGACGTTCGGGACGTGCTA,3.57 z-score
GACGGACTGGGGTATCGGGAAGTGCTA,0.155 z-score
TTATAACTGAGTATCGATTAGTGCTAG,4.51 z-score
TATTTTCTGAATGTCTTCCCGTGCTAG,1.07 z-score
TTAGGACTGCTTATCCTTTAGTGCTAG,-0.398 z-score
TTACATTTCAGACTGGATTAGTGCTAG,0.0245 z-score
GACGAACTGGGACTGGGGACGTGCTAG,-0.271 z-score
GACGGCCTGCTTATCCTGACGTGCTAG,-0.092 z-score
TTAGAACTGGGGACTGGAGTAGTGCTA,-0.279 z-score
TGAGGACTGGGGTATCGGTTAGTGCTA,2.57 z-score
TTACATTTCAGTTTCGATTAGTGCTAG,9.61 z-score
GACGGTCTCGTTTTCCTGACGTGCTAG,2.56 z-score
GCCGAACTGGGGTATCGAGACGTGCTA,0.788 z-score
GACGGTAGCGACACTGGGGACGTGCTA,-0.0376 z-score
TTAGAACTGAGTCTCGTTTAGTGCTAG,1.19 z-score

# Sample 2
# Target: Centromere-binding protein 1, full length, His-tagged (CBF1, Saccharomyces cerevisiae, UniProt P17106, residues 1-351)
# UniProt P17106, sequence (whole entry, looked up): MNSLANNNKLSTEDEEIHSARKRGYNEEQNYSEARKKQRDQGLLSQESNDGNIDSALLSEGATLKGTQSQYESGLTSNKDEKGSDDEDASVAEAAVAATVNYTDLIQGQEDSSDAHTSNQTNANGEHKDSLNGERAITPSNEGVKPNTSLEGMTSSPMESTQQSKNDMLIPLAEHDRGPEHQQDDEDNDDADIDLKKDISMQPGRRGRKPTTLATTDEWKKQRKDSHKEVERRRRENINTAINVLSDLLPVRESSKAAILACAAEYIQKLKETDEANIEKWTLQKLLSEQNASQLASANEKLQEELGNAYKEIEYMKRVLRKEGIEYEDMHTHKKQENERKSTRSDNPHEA
# Method: competition protein-binding microarray
# Molecule type: double-stranded DNA, one strand shown
# Matrix: in vitro
# Tested at: 2 µM
# Notes: whole 60-bp probe, lowest competitor level
# Together with: Pho4 competitor, 0.05 µM
# Direction: higher = stronger binding
# All sequences stand within: … GTCTTGATTCGCTTGACGCTGCTG
Sequence,fluorescence intensity [a.u.]
GGAGGCTTTGCGTCCCACGTGAGGCTTCATGAACAA,1310
GAGTGTTGTTGGGCGCACATGTCGATTTCATAATAG,143
GCCTCCTTAGATTGCCCCGTGCCAGCAATGGTCATT,112
ATACTCGCTCGCGGCCACGGGTCAACCCGATTGGGA,85.6
AATTTCAACGACAGGTTCGTGCTTTTCACCTTCACC,67.4
AAAGCGGTAATTTGTTTAGTGGGTGCAGATATCTAT,77.4
TGAACAGAAACAAATCACATGTTTCCTTGGCAGAAT,867
TCTTGGTTCCAAAGCAGCGTGTTGAAGAGAGGAACC,66.4
CATACCCAACCTTGTCACAGAACTTAAGATATTTGT,77.2
CGGGGTTAAGTTTGAGAGGTGGGTGGCTTGCAGCAG,79.3
TTCAAGCTAAATGAAAATGATTTAAAGACATATAAT,94.1
CTAACGAAGGTTTGCCATGTGGGTGACAAGCCAAGT,96.8
CGGGGTTAAGTTTGTCTAGTGGGTGGCTTGCAGCAG,81.9
GCCTTGCAATTTATCACCGTGAGACATCCAGACAGT,92.5
GGATGGGACACCAACAACGTGCAAAACACCGAAGTG,128
CTAACCGGCCACCGTCACATGATTCGATTGTGTAGC,942
CGTCCTAGCGATTGATCCGTGGGTGCCATGAGGAAG,74.8
CCAGCGCATCTACTGAACCTGATCCAAAACTCCAAA,56.5
GTCTTGTCTCATTGCCCGGTGGGTGTCCCCACTTCA,65.1
TAATTTCGAAGTACCTATATTTTTAACCAATCTCGG,96.2
CCCGTTCGCTAACCAAGCGTGGGACAAGAGTTTAGG,68.3
GTCTTGTCTCATTGGTTAGTGGGTGTCCCCACTTCA,84
AAATTACTAAGTTGACCCGTGGGTGACGCCGTATGA,80.3
AGTTCCGCTGTGCTGCATGTGTGTGTATGCCAATAT,111

# Sample 3
# Target: Ras GTPase-activating protein-binding protein 1, C-terminal RGG region (G3BP1, Homo sapiens, UniProt Q13283)
# UniProt Q13283, sequence (whole entry, looked up): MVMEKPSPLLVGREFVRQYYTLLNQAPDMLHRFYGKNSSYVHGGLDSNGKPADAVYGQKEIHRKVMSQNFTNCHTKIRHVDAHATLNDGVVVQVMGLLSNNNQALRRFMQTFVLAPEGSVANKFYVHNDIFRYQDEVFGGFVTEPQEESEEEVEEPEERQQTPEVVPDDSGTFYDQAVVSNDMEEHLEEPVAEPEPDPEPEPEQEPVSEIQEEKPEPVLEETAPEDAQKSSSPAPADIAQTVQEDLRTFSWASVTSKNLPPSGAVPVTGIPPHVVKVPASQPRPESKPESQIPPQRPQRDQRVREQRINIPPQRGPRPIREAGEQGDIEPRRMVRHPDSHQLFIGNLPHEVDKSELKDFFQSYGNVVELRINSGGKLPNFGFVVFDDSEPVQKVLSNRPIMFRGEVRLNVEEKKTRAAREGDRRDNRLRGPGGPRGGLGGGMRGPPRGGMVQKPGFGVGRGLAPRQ
# Method: RNA Bind-n-Seq
# Molecule type: RNA
# Matrix: in vitro
# Tested at: 1 µM
# Notes: whole 134-nt RNA, ends assumed
# Together with: 150 mM KCl
# Reference: input library
# Direction: higher = stronger binding
# All sequences stand within: GGGAGUUCUACAGUCCGACGAUC … UGGAAUUCUCGGGUGUCAAGG
Sequence,log2 enrichment
ACCAUGCAGGAGGGCAUCUUUGGGAAGUGGGGCAAGGGGGGGAUAGGGAGGGGGGUAACACUUUGGGAACAGGUGGUCCCAGGUCGUUUC,-1.13
UGGCCCUGGUGGCAUGCGGGGAGGAAGAGGUGGCCUCAUGGAUCGUGGUGCUCCCGGUGGAAUGUUCAGAGGUGGCCGUGGUGGAGACAG,1.63
AGUCCUGUGCUACACAUCGUAUGUACCGAAUCGGGCCCCCGGCCCCCGGGCCCCCGGAAAGUAUUAUGUUACGCCGUUCGGAUCUGCACU,-1.67
AGUCCUGUGCUACACAUCGUAUGUACCGAAUCAAAUUUUUUUAAACCCAAACCCAAAAAAGUAUUAUGUUACGCCGUUCGGAUCUGCACU,-1.15
CAAGUCCUGUGCUACACAUCGUAUGUACCGAAUCGGUUUUUGGAAAGGUUUUUGGAAAGUAUUAUGUUACGCCGUUCGGAUCUGCACUUC,-1.73
CAAGUCCUGUGCUACACAUCGUAUGUACCGAAUCGGGAAAGGGAAAGGGGAAAGGAAAGUAUUAUGUUACGCCGUUCGGAUCUGCACUUC,-1.22
UGCACUGACUGGUGGUGUCAACCCAUGGCUCAACUGGAAGCACUGUGGAAGAAGAUGGAGGGUGUGGUAAGUCCAUCAGACCUGGGACCG,-0.0204
UUCAAGGAAAAACAAGAGGAGCAGGCUCGCCUCCUUGAUGAACUGGCAGGCAAGCUACAAAGCCUAGACCUUUCAGCCGCUGCCGAAAUG,-1.73
GUCCUGUGCUACACAUCGUAUGUACCGAAUCGGGUUUUUUUGGGAAAGGGUUUUUGGGAAAGUAUUAUGUUACGCCGUUCGGAUCUGCAC,-0.0496
UUAUUCUGUGUGACACCUGCCCUCGUGCCUACCACCUCGUCUGCCUUGAUCCUGAGCUUGACCGGGCUCCAGAGGGCAAAUGGAGCUGCC,0.68
GUCCUGUGCUACACAUCGUAUGUACCGAAUCGGAAAAAAGGAAAAAAGGAAAAAAGGGGAAAGUAUUAUGUUACGCCGUUCGGAUCUGCA,-1.64
UCAAGUCCUGUGCUACACAUCGUAUGUACCGAAUCGGGUUUGGGAAAGGGAGGGAAAGUAUUAUGUUACGCCGUUCGGAUCUGCACUUCC,2.1
UCAAGUCCUGUGCUACACAUCGUAUGUACCGAAUCGGGGAAAGGAAAGGAAAGGAAAGUAUUAUGUUACGCCGUUCGGAUCUGCACUUCC,-1.61
UUUUAGGAAGCUGCAGUAAAGGAAGAUGAAGAAGAAGUUUCAGAUAAGGGCAGUGAUUCUGAAGAAGAAGAAACCAAUAGAGAUUCCCAA,-1.41

# Sample 4
# Target: DDIT3, bZIP domain (human)
# Method: DHFR protein complementation
# Matrix: yeast
# Notes: single substitutions, most at no-binding floor
# Reference: wild-type JUN-FOS pair
# Direction: higher = stronger binding
# Parent: JUN, bZIP domain (human); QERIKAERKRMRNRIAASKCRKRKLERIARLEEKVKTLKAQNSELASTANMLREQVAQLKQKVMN; partner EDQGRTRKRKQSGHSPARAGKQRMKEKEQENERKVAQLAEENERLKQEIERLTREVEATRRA
Substitution,binding fitness [natural log]
T37L,0.133
V56F,-0.181
A49I,-0.102
L52Y,-1.04
R53I,-0.606
K34F,-0.304
E33T,-0.189
A29G,-0.165
Q41I,0.094
S43L,0.0709
L38K,-1.25
V56I,0.221
S43E,0.185
L52W,-1.11
V56A,-0.103
L38D,-1.14
A49T,-0.594
A49M,-0.142
E32A,0.192
T48C,-0.0876

# Sample 5
# Target: CCNF, cyclin fold, Cln2 fusion (human)
# Method: yeast growth competition, sequencing
# Matrix: yeast
# Notes: strong parent motif
# Reference: not given
# Direction: higher = stronger binding
# Parent: RBL2 docking peptide (human); STTRRRLFVENDS
Substitution,normalised enrichment score
PTTRRRLFVENDS [S1P],8.43
STTRRRLFVTNDS [E10T],7.13
STTRRRLFVENDF [S13F],8.76
STTRRRLMVENDS [F8M],3.76
STTRCRLFVENDS [R5C],1.42
STTRRTLFVENDS [R6T],4.17
STTRRRLEVENDS [F8E],2.22
STTERRLFVENDS [R4E],1.42
STTRRRLFRENDS [V9R],9.57
STTRRRLFVENRS [D12R],8.36
STTRRRLFVENDP [S13P],9.29
STTRRRLFVETDS [N11T],8.3
CTTRRRLFVENDS [S1C],9.98
SPTRRRLFVENDS [T2P],6.84
STTRTRLFVENDS [R5T],2.07
SKTRRRLFVENDS [T2K],11.2
STTRRVLFVENDS [R6V],7.13
STTRKRLLVENDS [R5K F8L],0.89

# Repeated from above (sample 2):
Sequence,fluorescence intensity [a.u.]
ATACTCGCTCGCGGCCACGGGTCAACCCGATTGGGA,85.6
AATTTCAACGACAGGTTCGTGCTTTTCACCTTCACC,67.4
AAAGCGGTAATTTGTTTAGTGGGTGCAGATATCTAT,77.4
TGAACAGAAACAAATCACATGTTTCCTTGGCAGAAT,867
TCTTGGTTCCAAAGCAGCGTGTTGAAGAGAGGAACC,66.4
CATACCCAACCTTGTCACAGAACTTAAGATATTTGT,77.2
CGGGGTTAAGTTTGAGAGGTGGGTGGCTTGCAGCAG,79.3
